Measurements from different studies.
Numbered parts are unrelated; each lists some results of a single study.

Sample 1 — technique: universal PBM; molecule type: double-stranded DNA, one strand shown; matrix: in vitro; concentration: not given; reading: higher = stronger binding
Target: Sal-like protein 4, full length isoform B (SALL4, Homo sapiens, UniProt Q9UJQ4-2, residues 1-616)
Notes: 8-mer, flanks averaged, mean of replicates
The E-score of `AGTTACAG` is reported as 0.0315.
With `AGCGCCCT` the E-score was -0.301.
The E-score of `TCTACGCA` is reported as 0.068.
For `AAAGACCT`, the E-score was -0.0261.
With `AAAGTGCA` the E-score was 0.146.
`ATCGGGGC` gave an E-score of -0.199.
For `TGGATAAA`, the E-score was 0.27.
With `CAGATCTG` the E-score was -0.287.
The E-score of `GACATGAA` is reported as 0.144.
`GCTTTCCC` has an E-score of -0.204.
`ATGCGTGA` gave an E-score of 0.00035.
`CTGATCTC` gave an E-score of -0.188.
For `TGATCTAA`, the E-score was 0.185.
`CGTTTAGA` gave an E-score of -0.0048.
`AAGTCTCG` gave an E-score of -0.231.
The E-score of `ACTTTAAT` is reported as 0.234.
For `AGCTTAAT`, the E-score was 0.172.
`CGCAGAGC` gave an E-score of -0.228.
`AGTAGCGG` gave an E-score of -0.141.
`AGTGGCAA` gave an E-score of 0.0454.
With `ACATGGTG` the E-score was 0.145.
`CCCATGGG` has an E-score of -0.284.
`CGTGATAG` has an E-score of -0.0002.
With `CGAAGTGA` the E-score was -0.0484.
For `CAGCCATA`, the E-score was 0.0435.

Sample 2 — technique: protein binding microarray; molecule type: double-stranded DNA, one strand shown; matrix: in vitro; concentration: not given; baseline: not given; reading: higher = stronger binding
Target: Histone acetyltransferase KAT6A, winged helix 1, GST fusion (KAT6A, Homo sapiens, UniProt Q92794, residues 1-85)
Notes: 8-mer, flanks averaged, mean of 2 arrays, mostly near background
Target sequence (chain): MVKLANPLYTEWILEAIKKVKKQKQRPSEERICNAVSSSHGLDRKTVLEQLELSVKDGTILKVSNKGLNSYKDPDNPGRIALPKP
With `CCAAATCG` the E-score was -0.0417.
For `CAAGTTGG`, the E-score was -0.177.
`ACATAGTC` gave an E-score of 0.0393.
The E-score of `AGTTTCAA` is reported as -0.174.
The E-score of `AAGCTCTA` is reported as -0.0824.
`AGGGATTC` gave an E-score of -0.118.
With `AGATAGTC` the E-score was -0.0613.
`ACCGGAAG` gave an E-score of 0.262.
`AAACGAAC` gave an E-score of -0.17.
For `ACTGTACA`, the E-score was -0.201.
`GAAGGTAC` has an E-score of -0.0439.
With `GAGCACGA` the E-score was -0.0753.
With `CTGCGCAG` the E-score was 0.0803.
The E-score of `CACACATC` is reported as -0.26.
The E-score of `CTGCTTTC` is reported as -0.206.
`GATCTGGA` gave an E-score of -0.271.
`CCCCTTTC` gave an E-score of -0.0381.
`ACGGAGCT` has an E-score of 0.176.
`CTGGTAAC` gave an E-score of -0.0794.
The E-score of `GGAAGGAC` is reported as -0.0271.
`ACACCGAT` has an E-score of 0.0343.
`ATACTAGC` has an E-score of 0.0341.
`CCCTCACG` gave an E-score of -0.0927.
With `AGCGATTC` the E-score was 0.14.
For `CTATTCGC`, the E-score was 0.0199.

Sample 3 — technique: aptamer microarray, sandwich; molecule type: DNA with 2'F-ANA; matrix: in vitro; concentration: 200 nM; with: Cy3 exosite-II aptamer, 400 nM; reading: higher = stronger binding; oligonucleotide: GGTTGGTGTGGTTGG
Target: Prothrombin, mature alpha-thrombin (F2, Homo sapiens, UniProt P00734)
Notes: whole 15-mer aptamer, many near background
`2'F-ANA at 2 3 7 10 11 13` — result for “mean fluorescence intensity”: 365 a.u.
`2'F-ANA at 1 4 5 7 8 9 12 13 14 15`: “mean fluorescence intensity” 96.6 a.u.
For `2'F-ANA at 2 5 7 8 9 10 11 13 14 15`, “mean fluorescence intensity” read 47.1 a.u.
Under “mean fluorescence intensity”, `2'F-ANA at 1 5 6 9 10` is recorded as 60.9 a.u.
`2'F-ANA at 1 2 3 4 5 8 10 13 15`: “mean fluorescence intensity” 49.6 a.u.
For `2'F-ANA at 1 2 4 7 8 15`, “mean fluorescence intensity” read 181 a.u.
For `2'F-ANA at 3 4 7 8 11 13 15`, “mean fluorescence intensity” read 579 a.u.
`2'F-ANA at 1 2 5 6 7 8 12 13 14 15` — result for “mean fluorescence intensity”: 62.1 a.u.
For `2'F-ANA at 2 7 9 11 13 14`, “mean fluorescence intensity” read 153 a.u.
Under “mean fluorescence intensity”, `2'F-ANA at 1 6 7 8 10 12 13` is recorded as 63.3 a.u.
For `2'F-ANA at 7 8 9 10 11 15`, “mean fluorescence intensity” read 162 a.u.
For `2'F-ANA at 1 4 8 10 11 12 13 14 15`, “mean fluorescence intensity” read 49.9 a.u.
Under “mean fluorescence intensity”, `2'F-ANA at 1 2 4 7 8 12 13 15` is recorded as 352 a.u.
`2'F-ANA at 1 3 5 6 8 14 15` — result for “mean fluorescence intensity”: 47.1 a.u.
`2'F-ANA at 4 9 11 13 15` — result for “mean fluorescence intensity”: 173 a.u.
`2'F-ANA at 1 5 12 13` — result for “mean fluorescence intensity”: 77.1 a.u.
For `2'F-ANA at 1 2 7 9 11 12 13`, “mean fluorescence intensity” read 205 a.u.
For `2'F-ANA at 2 3 5 7 10 11 13 14`, “mean fluorescence intensity” read 55.7 a.u.
`2'F-ANA at 1 2 4 6 7 9 10 12 14` — result for “mean fluorescence intensity”: 46.9 a.u.
`2'F-ANA at 4 5 6 8 13 14 15` — result for “mean fluorescence intensity”: 112 a.u.
`2'F-ANA at 4 5 7 8 10 11 12 14`: “mean fluorescence intensity” 46.4 a.u.
`2'F-ANA at 6 7 8 9 10 13 14 15`: “mean fluorescence intensity” 161 a.u.
For `2'F-ANA at 2 4 5 6 8 9 11 13 15`, “mean fluorescence intensity” read 52 a.u.
Under “mean fluorescence intensity”, `2'F-ANA at 2 3 6 7 9 10 11` is recorded as 297 a.u.
Under “mean fluorescence intensity”, `2'F-ANA at 1 2 3 5 6 8 9 10 11 12 13 14` is recorded as 55.4 a.u.

Sample 4 — technique: RNA Bind-n-Seq; molecule type: RNA; matrix: in vitro; concentration: not given; baseline: input RNA pool; reading: higher = stronger binding
Target: RING finger protein unkempt homolog, zinc fingers 1-6, GST-SBP tag (UNK, Homo sapiens, UniProt Q9C0B0, residues 30-357)
Notes: RNA with constant flanks, human and mouse sites, ends assumed
Construct (chain): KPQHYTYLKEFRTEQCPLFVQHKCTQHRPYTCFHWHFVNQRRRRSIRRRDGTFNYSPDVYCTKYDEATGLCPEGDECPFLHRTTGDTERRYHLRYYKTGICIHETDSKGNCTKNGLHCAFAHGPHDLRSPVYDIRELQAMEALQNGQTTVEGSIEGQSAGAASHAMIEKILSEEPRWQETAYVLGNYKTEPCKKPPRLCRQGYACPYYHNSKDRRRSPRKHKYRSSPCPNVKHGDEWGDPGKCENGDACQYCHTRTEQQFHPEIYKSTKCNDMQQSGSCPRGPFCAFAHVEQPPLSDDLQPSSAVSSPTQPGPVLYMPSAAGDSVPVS
With `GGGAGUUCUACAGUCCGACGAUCCCUGCCAACGGGGACUUCACCUUUGUGUCUUCGGCGGACGCGGAAGAUCUCAGCGGUUCUAUAGCAGCUCCAGAUGUCAAAUUAAACCUCGGUGUAAGCGGAGAUUUCAUCAAAGAAUCUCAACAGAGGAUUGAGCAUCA` the bound/input enrichment was 0.0576 ratio.
`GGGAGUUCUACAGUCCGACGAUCCGGUCAGGGCGCCCCCUCCGCCCGCCUCCUGCUUCCUCCUCCGCUGCCUGCCGCCGCCGCCUCCACCAUUGUAUAAUGCUCGGGGCGCGCAGGCAGAGAACGGCGGAGUCUUAGCUUCAGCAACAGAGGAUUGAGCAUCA` has a bound/input enrichment of 0.0933 ratio.
The bound/input enrichment of `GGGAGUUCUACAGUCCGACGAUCCAGAAUGUCAACAGUGUAACUUUAUUUGUUCAGUCUAAUCAAGGAGAAGAAGAAACAACGAGAAUUUCAUAUUUUACUUUCAUUGGUACUCCAGUCCAGGCAACAAAUAUGAAUGACUUCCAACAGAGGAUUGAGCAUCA` is reported as 0.125 ratio.
For `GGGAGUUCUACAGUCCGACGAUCCCUCCCUGGAAUUUUUCUUGGAAGCCCCAUCAGUCCUUCUCUCUAUAUUUAUUUAUAAUGCCAGCAAGCCUCAAGUUCCGGAAUACGCACCUAGGCAAGAAAGGAUCCGAGAUCUAAGUGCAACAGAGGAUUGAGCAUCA`, the bound/input enrichment was 1 ratio.
For `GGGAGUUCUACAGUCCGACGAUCCCUCCCAGAAAGCAAGUGUAUCGUUUCUUCUUUUAUAGUUGUAAAUAAUCCAGCCAGAGGUAGUUUCUAGCCUGUGCCAUAUAGAUGUUUCCUACGGUGUUCUCUCAACAAAGUGUUUAUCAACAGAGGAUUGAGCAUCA`, the bound/input enrichment was 2.56 ratio.
For `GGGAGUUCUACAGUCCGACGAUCGCCCGGAUGAACUUCAGGGCUAAGGAAUAUGAGAGUUUAAUGGAAACCAAAAAUUCUGGCUCUGAUUCACCUUAUAAAGCAAAGCUUCAGCGAUUAGCCAAAGAUCUUCUAAAACAAGUACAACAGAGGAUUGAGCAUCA`, the bound/input enrichment was 0.251 ratio.
`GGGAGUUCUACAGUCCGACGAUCUGAGCAUCCCCAAAGUGUAACGUAGAAGCCUUGCAUCCUUUUCUUGUGUAAAGUAUUUAUUUUUGUCAAAUUGCAGGAAACAUCAGGCACCACAGUGCAUGAAAAAUCUUUCACAGCUAGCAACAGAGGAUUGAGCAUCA` gave a bound/input enrichment of 0.476 ratio.
For `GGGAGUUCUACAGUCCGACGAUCCCUUCCCCUCCUACUACAACCACUGAGCCUGCUUCAGCCUCUGCCUCGACCACCACAGCUGUGACGGCUGUCACUACGGAAGUGGAUCUCUUUGGAGAUGCCUUUGCAGCUUCUCCUGGGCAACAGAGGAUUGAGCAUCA`, the bound/input enrichment was 0.475 ratio.
The bound/input enrichment of `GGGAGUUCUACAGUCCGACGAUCAUAAUGAAAACAGUGAAGGGUUUUUUUUAUGUUUCAUUACUUCUUGGCAUUCUGAAGGAGAUAGCUGGAAACACCAUAAUUCACAAAACAGAUUCAGAUGAAAAAGUCACAGUGCUGUUUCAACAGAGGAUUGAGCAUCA` is reported as 0.164 ratio.
For `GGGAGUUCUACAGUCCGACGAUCGGGGAGAUUGAUGCACUGAGUAAAAGAAGCAAAGAAGCAGAGGCAGCCUUCUUGACUGUGUACAAGAGACUAAUUGAUGUUCCAGAUCCGGUACCAGCCCUGGACGUCGGGCAACAGCUGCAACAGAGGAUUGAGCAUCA`, the bound/input enrichment was 0.457 ratio.
With `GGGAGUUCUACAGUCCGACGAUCAAGACCAUAAAGUUAUGGAAUACUCUGGGUGUCUGCAAGUACACGGUCCAGGAUGAGAGUCAUUCAGAAUGGGUGUCUUGUGUCCGCUUCUCCCCGAACAGCAGCAACCCUAUCAUCGUCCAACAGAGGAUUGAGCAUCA` the bound/input enrichment was 0.133 ratio.

Sample 5 — technique: protein-binding microarray; molecule type: double-stranded DNA, one strand shown; matrix: in vitro; concentration: 250 nM; notes: 60-bp whole probe; with: salmon DNA 0.4 mg/ml; baseline: random background probes; reading: higher = stronger binding; constant ends, left off below: GCCTAGCAC … GTCTTGATTCGCTTGACGCTGCTG
Target: Interferon regulatory factor 5, full length, phosphomimetic (IRF5, Homo sapiens, UniProt Q13568-2, residues 1-514, K96S/S451D/S453D/S456D/S462D)
`GCCGGTTTCCTTTCCCTGACGTGCTAG` gave a log fluorescence of 1.26 z-score.
`TTAGGTTTCGACTTACGGTTAGTGCTA` has a log fluorescence of 7.91 z-score.
The log fluorescence of `GACGGACTGGACTATCGGCACGTGCTA` is reported as 0.727 z-score.
`TTAGGTATCGGGACTTGGTTAGTGCTA` has a log fluorescence of 1.62 z-score.
With `TCATCTCTCTTTCCACTACTGTGCTAG` the log fluorescence was 1.03 z-score.
`TTAGGTTTCGGACTGGGTCAGTGCTAG` has a log fluorescence of 5.37 z-score.
For `GACGATTTCAGTCGCGAGACGTGCTAG`, the log fluorescence was 0.89 z-score.
`TTAGATTTCGGGTATCGTTTAGTGCTA` has a log fluorescence of 6.17 z-score.
`TTAGATAGCGGGTATCGATTAGTGCTA` gave a log fluorescence of 3.33 z-score.
`GACGGTTCCGGTTACGGGACGTGCTAG` has a log fluorescence of 1.1 z-score.
`CACGGACTGGGTCTCGGGACGTGCTAG` gave a log fluorescence of -0.668 z-score.
For `TCAACTTTGGTTTGTACACTGTGCTAG`, the log fluorescence was 0.334 z-score.
With `ATTTGTCCCTATTTAAGAGAGTGCTAG` the log fluorescence was 0.378 z-score.

Some of these lines once more (sample 2):
The E-score of `CACACATC` is reported as -0.26.
The E-score of `CTGCTTTC` is reported as -0.206.
`GATCTGGA` gave an E-score of -0.271.
`CCCCTTTC` gave an E-score of -0.0381.
`ACGGAGCT` has an E-score of 0.176.
`CTGGTAAC` gave an E-score of -0.0794.
The E-score of `GGAAGGAC` is reported as -0.0271.
`ACACCGAT` has an E-score of 0.0343.
`ATACTAGC` has an E-score of 0.0341.
`CCCTCACG` gave an E-score of -0.0927.
